Measured values collected from several papers.
± gives the spread as reported.

CC(=O)OC1O[C@@H]2O[C@@]3(C)CC[C@H]4[C@H](C)CCC([C@H]1C)[C@@]24OO3 (stereo partly drawn)
dead embryos (Tg(fli1:EGFP) zebrafish embryos; 50 µg/mL, up to 48 hpf): 4 count

CSCC[C@H](NC(=O)CNC(=O)[C@H](CC(=O)O)NC(=O)[C@@H](NC(=O)[C@@H](NC(=O)[C@@H](NC(=O)CNC(=O)[C@H](CCC(N)=O)NC(=O)[C@H](CCSC)NC(=O)[C@H](CC(=O)O)NC(=O)[C@H](C)NC(=O)[C@H](C)NC(=O)[C@@H](NC(=O)[C@H](CO)NC(=O)[C@@H](N)CC(C)C)[C@@H](C)O)C(C)C)C(C)C)[C@@H](C)O)C(=O)N[C@@H](C)C(=O)N[C@@H](CO)C(=O)NCC(=O)N[C@@H](CC(C)C)C(=O)N[C@@H](CC(=O)O)C(=O)N[C@@H](CCCCN)C(=O)N[C@@H](CC(=O)O)C(=O)N[C@@H](Cc1ccc(O)cc1)C(=O)N[C@@H](CC(C)C)C(=O)N[C@@H](CCCCN)C(=O)N1CCC[C@H]1C(=O)N[C@@H](CC(=O)O)C(=O)N[C@@H](CC(=O)O)C(=O)O
terminal half-life (t1/2γ) (LC-MS/MS; patients, serum; intravenous infusion, 4.16 mg/kg): 4.12 h

CC(C)[C@H](NC(=O)CNC(=O)[C@H](CCC(N)=O)NC(=O)[C@H](C)N)C(=O)O
subjects given concomitant medication (human; 30 mg/kg, 3 days, thrice daily dosing): 0%

O=c1cc(-c2ccccc2)oc2c(Br)c(O)c(O)c(O)c12
MRT(0-inf) (C57BL/6 mouse, plasma; intravenous, 10 mg/kg, single dose): 2 h

Cc1cc([C@H](C(=O)N2C[C@H](O)C[C@H]2C(=O)N[C@@H](CC(=O)N2CCC(N3CCC(C#Cc4ccc(C(=O)N[C@H]5C(C)(C)[C@H](Oc6ccc(C#N)c(Cl)c6)C5(C)C)cc4)CC3)CC2)c2ccc(-c3scnc3C)cc2)C(C)C)on1
toxicity (mouse MDA-MB-453 xenograft; dose not given, whole efficacy study): not toxic

COc1cc(NC(=O)C(=O)c2c(C)n(Cc3ccc(Cl)cc3)c3ccc(C)cc23)ccn1
Vd (male cynomolgus monkey, plasma; intravenous, 1 mg/kg): 4.52 L/kg

CCCCCCCCCCCCCCC(=O)O.O=C1CCCC2C3CCCN4CCCC(CN12)C34 (stereo not drawn)
log octanol-water partition coefficient (shake-flask; simulated body fluid; pH 7.4, 25 °C): 0.83

CC[C@H](C)[C@H](NC(=O)CNC(=O)[C@H](Cc1ccccc1)NC(=O)[C@H](CCCCN)NC(=O)[C@H](CCCCN)NC(=O)[C@H](CCCNC(=N)N)NC(=O)[C@H](CCCNC(=N)N)NC(=O)[C@H](CCCNC(=N)N)NC(=O)[C@H](CCC(N)=O)NC(=O)[C@H](CCCNC(=N)N)NC(=O)[C@H](CCCNC(=N)N)NC(=O)[C@H](CCCCN)NC(=O)[C@H](CCCCN)NC(=O)[C@H](CCCNC(=N)N)NC(=O)CNC(=O)[C@@H](N)Cc1ccc(O)cc1)C(=O)N[C@H](C(=O)N[C@@H](CC(N)=O)C(=O)N[C@@H](CO)C(=O)N[C@@H](CCC(N)=O)C(=O)N[C@@H](CC(C)C)C(=O)N[C@@H](CCCCN)C(=O)N1CCC[C@H]1C(=O)O)[C@@H](C)O
locomotor activity (open field test; 5XFAD and wild-type mice; intraperitoneal, 25 mg/kg, outcome no effect): no effect

CC[C@H](C)[C@H](NC(=O)[C@H](Cc1ccccc1)NC(=O)[C@H](CCC(=O)O)NC(=O)[C@H](CCCCN)NC(=O)[C@H](C)NC(=O)[C@H](C)NC(=O)[C@H](CCC(N)=O)NC(=O)CNC(=O)[C@H](CCC(=O)O)NC(=O)[C@H](CC(C)C)NC(=O)[C@H](Cc1ccc(O)cc1)NC(=O)[C@H](CO)NC(=O)[C@H](CO)NC(=O)[C@@H](NC(=O)[C@H](CC(=O)O)NC(=O)[C@H](CO)NC(=O)[C@@H](NC(=O)[C@H](Cc1ccccc1)NC(=O)[C@@H](NC(=O)CNC(=O)[C@H](CCC(=O)O)NC(=O)CNC(=O)[C@@H](N)Cc1c[nH]cn1)[C@@H](C)O)[C@@H](C)O)C(C)C)C(=O)N[C@@H](C)C(=O)N[C@@H](Cc1c[nH]c2ccccc12)C(=O)N[C@@H](CC(C)C)C(=O)N[C@H](C(=O)N[C@@H](CCCCN)C(=O)NCC(=O)N[C@@H](CCCNC(=N)N)C(=O)N[C@@H](CSC1CC(=O)N(CCC(=O)NCCCCC(NC(=O)CCN2C(=O)CC(SC[C@H](NC(=O)[C@H](CCCNC(=N)N)NC(=O)CNC(=O)[C@H](CCCCN)NC(=O)[C@@H](NC(=O)[C@H](CC(C)C)NC(=O)[C@H](Cc3c[nH]c4ccccc34)NC(=O)[C@H](C)NC(=O)[C@@H](NC(=O)[C@H](Cc3ccccc3)NC(=O)[C@H](CCC(=O)O)NC(=O)[C@H](CCCCN)NC(=O)[C@H](C)NC(=O)[C@H](C)NC(=O)[C@H](CCC(N)=O)NC(=O)CNC(=O)[C@H](CCC(=O)O)NC(=O)[C@H](CC(C)C)NC(=O)[C@H](Cc3ccc(O)cc3)NC(=O)[C@H](CO)NC(=O)[C@H](CO)NC(=O)[C@@H](NC(=O)[C@H](CC(=O)O)NC(=O)[C@H](CO)NC(=O)[C@@H](NC(=O)[C@H](Cc3ccccc3)NC(=O)[C@@H](NC(=O)CNC(=O)[C@H](CCC(=O)O)NC(=O)CNC(=O)[C@@H](N)Cc3c[nH]cn3)[C@@H](C)O)[C@@H](C)O)C(C)C)[C@@H](C)CC)C(C)C)C(N)=O)C2=O)C(=O)NCCCCCCN)C1=O)C(N)=O)C(C)C (stereo partly drawn)
liver and kidney toxicity markers (refers to: ALT, AST, BUN, creatinine; db/db mouse, serum; subcutaneous, 500 nmol/kg twice daily, 7 days; reference: control): no effect

CC(C)C[C@H](NC(=O)CNC(=O)[C@H](CCC(=O)O)NC(=O)[C@H](CCCCN)NC(=O)[C@H](CC(C)C)NC(=O)[C@H](C)NC(=O)[C@H](C)NC(=O)CNC(=O)[C@H](C)NC(=O)[C@H](CCCCN)NC(=O)[C@H](CCC(=O)O)NC(=O)[C@H](CC(C)C)NC(=O)[C@H](CCCCN)NC(=O)[C@H](CCCCN)NC(=O)[C@H](CC(C)C)NC(=O)[C@H](CC(C)C)NC(=O)[C@H](CCCCN)NC(=O)[C@H](Cc1c[nH]c2ccccc12)NC(=O)[C@@H](N)CCCCN)C(=O)N[C@@H](CC(C)C)C(=O)N[C@@H](CCCCN)C(=O)N[C@@H](C)C(=O)NCC(=O)N1CCC[C@H]1C(=O)N[C@@H](C)C(=O)N[C@@H](CC(C)C)C(=O)N[C@@H](C)C(=O)N[C@@H](CC(C)C)C(=O)N[C@@H](CC(C)C)C(=O)NCC(=O)N[C@@H](C)C(=O)N[C@@H](C)C(=O)N[C@@H](C)C(=O)N[C@@H](C)C(=O)N[C@@H](CC(C)C)C(=O)N[C@@H](C)C(=O)N[C@@H](CCCCN)C(N)=O
helicity (circular dichroism; phosphate buffer 10 mM; 1 to 5 µM, pH 7.5, approximate): ~30%

CCCC[C@H]1C(=O)N(C)[C@@H](CCCC)C(=O)N[C@@H](CCCNC(=O)CN2CCN(CC(=O)O)CCN(CC(=O)O)CCN(CC(=O)O)CC2)C(=O)N[C@H](C(=O)NCC(N)=O)CSCC(=O)N[C@@H](Cc2ccc(O)cc2)C(=O)N(C)[C@@H](C)C(=O)N[C@@H](CC(N)=O)C(=O)N2CCC[C@H]2C(=O)N[C@@H](Cc2c[nH]cn2)C(=O)N[C@@H](CC(C)C)C(=O)N(C)CC(=O)N[C@@H](Cc2c[nH]c3ccccc23)C(=O)N[C@@H](CO)C(=O)N[C@@H](Cc2c[nH]c3ccccc23)C(=O)N1C [gallium-68 labelled]
radiochemical purity (Kunming mouse, blood; intravenous, 15 min): > 95%

CCCCCCCC/C=C\CCCCCCCCOP(O)(O)=S.N
AUC(0-inf) (mouse, male, nonirradiated; sc, dose not given): 1520 ng·h/mL

O=C([O][Ti+2][O]C(=O)c1ccc(P(c2ccccc2)c2ccccc2)cc1)c1ccc(P(c2ccccc2)c2ccccc2)cc1.[Cl][Au].[Cl][Au].c1cc[cH-]c1.c1cc[cH-]c1
MTD (C57BL/6 mice; 7 days): 10 mg/kg/day

N=C(N)NCc1ccc(C(=O)NCCCC[C@H](NC(=O)N[C@@H](CCC(=O)O)C(=O)O)C(=O)O)cc1[211At]
tissue uptake (SCID mouse, PC-3 xenografts, stomach; 21 h): 1.91 ± 0.95 %ID/g

CSCC[C@@H]1NC(=O)[C@@H]2CSSC[C@H](NC(=O)[C@H](CO)NC(=O)[C@H](C)N)C(=O)N[C@@H](CCCNC(=N)N)C(=O)N[C@@H]([C@@H](C)O)C(=O)N3CCC[C@H]3C(=O)N[C@@H](CCCCN)C(=O)N[C@@H](CC(=O)O)C(=O)N[C@H]3CSSC[C@H](NC(=O)[C@H](CCCCN)NC(=O)[C@H](CCCNC(=N)N)NC(=O)[C@H](CC(N)=O)NC1=O)C(=O)N[C@@H](CCCCN)C(=O)N[C@H]1CSSC[C@H](NC(=O)[C@@H]4CCCN4C(=O)[C@H](CC(=O)O)NC(=O)[C@H](C)NC3=O)C(=O)N[C@@H](C)C(=O)N[C@@H](CCCCN)C(=O)N[C@@H](CCC(=O)O)C(=O)N[C@@H]([C@@H](C)O)C(=O)NCC(=O)N[C@@H](CSSC[C@@H](C(N)=O)NC(=O)[C@H](CCCNC(=N)N)NC(=O)[C@H](CC(N)=O)NC1=O)C(=O)N1CCC[C@H]1C(=O)N[C@@H](Cc1ccc(O)cc1)C(=O)NCC(=O)N[C@@H](CCCCN)C(=O)N2
albumin/globulin ratio (DA rat, pristane-induced arthritis, serum; subcutaneous, 0.1 mg/kg once weekly, end of 21-day trial): 3.24

CSCC[C@H](NC(=O)CNC(=O)[C@H](CCCCN)NC(=O)[C@H](CC(C)C)NC(=O)[C@@H]1CCCN1C(=O)[C@H](CO)NC(=O)[C@H](Cc1c[nH]cn1)NC(=O)[C@H](Cc1c[nH]c2ccccc12)NC(=O)[C@H](CCCNC(=N)N)NC(=O)[C@H](CC(C)C)NC(=O)[C@H](CCCNC(=N)N)NC(=O)[C@H](Cc1c[nH]c2ccccc12)NC(=O)[C@H](CS)NC(=O)CCCCCNC(=O)CN1CCN(CC(=O)O)CCN(CC(=O)O)CCN(CC(=O)O)CC1)C(=O)O [copper-64 labelled]
intact tracer remaining (radio-HPLC; mouse serum; 1 h, 37 °C): 94.9%

CC(C)[C@H](NC(=O)[C@H](Cc1c[nH]c2ccccc12)NC(=O)[C@H](Cc1ccccc1)NC(=O)[C@@H](NC(=O)[C@@H](NC(=O)[C@H](CCCCN)NC(=O)[C@@H](N)CCCCN)C(C)C)C(C)C)C(=O)N[C@@H](CCCCN)C(=O)N[C@@H](Cc1ccccc1)C(=O)N[C@@H](CCCCN)C(N)=O
cytokine level (ELISA, refers to: IL-5; mouse, blood; intravenous, 500 µg/kg, 5 days): 40.8 ± 3.14 pg/mL

O=S(=O)(O)C(F)(F)C(F)(F)OC(F)(C(F)(F)F)C(F)(F)OC(F)C(F)(F)F (stereo not drawn)
male sex effect on concentration (human, serum; concentration not given): 0.34 ng/mL

CC(CCC(=O)NCC(=O)O)C1CCC2C3C(O)CC4CC(OC5OC(C(=O)O)C(O)C(O)C5O)CCC4(C)C3CCC12C (stereo not drawn)
plasma concentration (human, SLCO1B1 *15/*15, plasma; geometric mean, sex-adjusted): 255 ng/mL

CC[C@H](C)C(=O)N1CCC(NC(=O)Nc2ccc(OC(F)(F)F)c(F)c2)CC1
subjects with extrasystoles TEAE (healthy volunteers; oral, 16 mg single dose, ventricular extrasystoles): 0%

[2H]c1c(NS(C)(=O)=O)c([2H])c2c(C(=O)c3ccc(OCCCN(CCCC)CCCC)cc3)c(CCCC)oc2c1[2H]
peak QTcF change (beagle dog, female, persistent atrial fibrillation model; intravenous, 3 mg/kg, 0.5 h): 7 ± 5 ms
